{"data": "Published values of several laboratories", "WRKY7 1-348": "WRKY7 1-348 (Brassica napus, UniProt C5H9Z7)", "PTGES3": "PTGES3 (Homo sapiens, UniProt Q15185)", "T1": "xseA/xseB 1-456;1-80 H238A (Escherichia coli); chain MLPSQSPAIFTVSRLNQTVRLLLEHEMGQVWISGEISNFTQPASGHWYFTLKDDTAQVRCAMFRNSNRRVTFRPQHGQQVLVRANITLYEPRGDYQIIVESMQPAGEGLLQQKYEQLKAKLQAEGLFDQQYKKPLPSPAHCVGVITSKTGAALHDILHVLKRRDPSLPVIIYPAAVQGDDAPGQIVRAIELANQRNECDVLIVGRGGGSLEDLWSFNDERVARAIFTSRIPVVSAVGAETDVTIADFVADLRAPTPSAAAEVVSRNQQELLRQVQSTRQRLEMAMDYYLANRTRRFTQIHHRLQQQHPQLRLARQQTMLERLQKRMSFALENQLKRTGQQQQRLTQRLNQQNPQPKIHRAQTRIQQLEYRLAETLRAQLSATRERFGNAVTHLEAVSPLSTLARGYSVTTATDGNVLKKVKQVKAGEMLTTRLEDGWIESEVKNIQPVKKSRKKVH; chain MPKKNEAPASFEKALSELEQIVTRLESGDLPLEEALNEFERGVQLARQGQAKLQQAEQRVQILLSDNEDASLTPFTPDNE", "B1": "SIRT5 W222A (Homo sapiens, UniProt Q9NXA8); chain ARPSSSMADFRKFFAKAKHIVIISGAGVSAESGVPTFRGAGGYWRKWQAQDLATPLAFAHNPSRVWEFYHYRREVMGSKEPNAGHRAIAECETRLGKQGRRVVVITQNIDELHRKAGTKNLLEIHGSLFKTRCTSCGVVAENYKSPICPALSGKGAPEPGTQDASIPVEKLPRCEEAGCGGLLRPHVVAFGENLDPAILEEVDRELAHCDLCLVVGTSSVVYPAAMFAPQVAARGVPVAEFNTETTPATNRFRFHFQGPCGTTLPEALA", "B2": "UGT1A4 (Homo sapiens, UniProt P22310); chain GKVLVVPTDGSPWLSMREALRELHARGHQAVVLTPEVNMHIKEEKFFTLTAYAVPWTQKEFDRVTLGYTQGFFETEHLLKRYSRSMAIMNNVSLALHRCCVELLHNEALIRHLNATSFDVVLTDPVNLCGAVLAKYLSIPAVFFWRYIPCDLDFKGTQCPNPSSYIPKLLTTNSDHMTFLQRVKNMLYPLALSYICHTFSAPYASLASELFQREVSVVDLVSYASVWLFRGDFVMDYPRPIMPNMVFIGGINCANGKPLSQEFEAYINASGEHGIVVFSLGSMVSEIPEKKAMAIADALGKIPQTVLWRYTGTRPSNLANNTILVKWLPQNDLLGHPMTRAFITHAGSHGVYESICNGVPMVMMPLFGDQMDNAKRMETKGAGVTLNVLEMTSEDLENALKAVINDKSYKENIMRLSSLHKDRPVEPLDLAVFWVEFVMRHKGAPHLRPAAHDLTWYQYHSLDVIGFLLAVVLTVAFITFKCCAYGYRKCLGKKGRVKKAHKSKTH", "B3": "enzyme (Streptomyces parvus, UniProt A0A7K3RVR3); chain MYVPEQYRPRDASWTLELIRSNPLALLVTNGPQHPWATHVPVLFAEEPDGPEGPDGLDATGDDLVGRRLLGHLNLMNPHWEALAGAGHALLVFQGPGSYVSPTVYETAPAAPTWDFTSVHVHGALRLIDDPDDLRKIVQATVRAYEREVGTDWDMSESLEYFERLLPGVRGFEIKIESVDSMFKLSQEQLPETVTKVIDSFRRSDGGRRQELATMIERAASD", "B4": "PTPN2 (Homo sapiens, UniProt P17706); chain MPTTIEREFEELDTQRRWQPLYLEIRNESHDYPHRVAKFPENRNRNRYRDVSPYDHSRVKLQNAENDYINASLVDIEEAQRSYILTQGPLPNTCCHFWLMVWQQKTKAVVMLNRIVEKESVKCAQYWPTDDQEMLFKETGFSVKLLSEDVKSYYTVHLLQLENINSGETRTISHFHYTTWPDFGVPESPASFLNFLFKVRESGSLNPDHGPAVIHCSAGIGRSGTFSLVDTCLVLMEKGDDINIKQVLLNMRKYRMGLIQTPDQLRFSYMAIIEGAKCIKGDSSIQKRWKELSKEDLSPAFDHSPNKIMTEKYNGNRIGLEEEKLTGDRCTGLSSKMQDTMEENSESALRKRIREDRKATTAQKVQQMKQRLNENERKRKRWLYWQPILTKMGFMSVILVGAFVGWTLFFQQNAL", "B5": "UGT76G1 (Stevia rebaudiana, UniProt Q6VAB4); chain MENKTETTVRRRRRIILFPVPFQGHINPILQLANVLYSKGFSITIFHTNFNKPKTSNYPHFTFRFILDNDPQDERISNLPTHGPLAGMRIPIINEHGADELRRELELLMLASEEDEEVSCLITDALWYFAQSVADSLNLRRLVLMTSSLFNFHAHVSLPQFDELGYLDPDDKTRLEEQASGFPMLKVKDIKSAYSNWQILKEILGKMIKQTKASSGVIWNSFKELEESELETVIREIPAPSFLIPLPKHLTASSSSLLDHDRTVFQWLDQQPPSSVLYVSFGSTSEVDEKDFLEIARGLVDSKQSFLWVVRPGFVKGSTWVEPLPDGFLGERGRIVKWVPQQEVLAHGAIGAFWTHSGWNSTLESVCEGVPMIFSDFGLDQPLNARYMSDVLKVGVYLENGWERGEIANAIRRVMVDEEGEYIRQNARVLKQKADVSLMKGGSSYESLESLVSYISSL", "B6": "fabH (Escherichia coli, UniProt P0A6R0); chain MYTKIIGTGSYLPEQVRTNADLEKMVDTSDEWIVTRTGIRERHIAAPNETVSTMGFEAATRAIEMAGIEKDQIGLIVVATTSATHAFPSAACQIQSMLGIKGCPAFDVAAACAGFTYALSVADQYVKSGAVKYALVVGSDVLARTCDPTDRGTIIIFGDGAGAAVLAASEEPGIISTHLHADGSYGELLTLPNADRVNPENSIHLTMAGNEVFKVAVTELAHIVDETLAANNLDRSQLDWLVPHQANLRIISATAKKLGMSMDNVVVTLDRHGNTSAASVPCALDEAVRDGRIKPGQLVLLEAFGGGFTWGSALVRF", "note": "Protocols differ between the studies behind these lines.", "chain of UniProt Q15185 (whole entry, looked up)": "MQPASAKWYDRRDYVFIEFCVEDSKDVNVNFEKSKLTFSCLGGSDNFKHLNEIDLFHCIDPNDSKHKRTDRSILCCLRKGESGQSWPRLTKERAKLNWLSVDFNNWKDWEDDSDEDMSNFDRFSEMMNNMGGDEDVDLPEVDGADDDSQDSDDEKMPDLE", "chain of UniProt Q9Y6L6 (whole entry, looked up)": "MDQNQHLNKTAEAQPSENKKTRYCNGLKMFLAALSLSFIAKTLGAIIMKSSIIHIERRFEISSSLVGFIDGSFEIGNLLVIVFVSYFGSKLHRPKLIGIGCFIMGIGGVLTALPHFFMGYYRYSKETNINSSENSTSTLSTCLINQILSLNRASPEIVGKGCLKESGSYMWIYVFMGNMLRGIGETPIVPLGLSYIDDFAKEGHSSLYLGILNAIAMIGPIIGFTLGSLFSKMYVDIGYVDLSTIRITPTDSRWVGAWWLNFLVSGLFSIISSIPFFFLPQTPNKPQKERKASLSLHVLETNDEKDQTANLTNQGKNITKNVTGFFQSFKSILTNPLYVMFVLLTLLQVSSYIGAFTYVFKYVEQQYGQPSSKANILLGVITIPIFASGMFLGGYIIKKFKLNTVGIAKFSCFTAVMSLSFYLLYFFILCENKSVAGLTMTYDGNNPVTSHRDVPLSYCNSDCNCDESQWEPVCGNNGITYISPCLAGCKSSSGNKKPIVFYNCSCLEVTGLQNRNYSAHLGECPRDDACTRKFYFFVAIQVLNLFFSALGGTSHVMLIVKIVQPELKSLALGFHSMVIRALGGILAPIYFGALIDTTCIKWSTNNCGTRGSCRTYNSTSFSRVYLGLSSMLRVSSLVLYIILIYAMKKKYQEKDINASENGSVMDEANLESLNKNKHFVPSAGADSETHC", "chain of UniProt O15438 (whole entry, looked up)": "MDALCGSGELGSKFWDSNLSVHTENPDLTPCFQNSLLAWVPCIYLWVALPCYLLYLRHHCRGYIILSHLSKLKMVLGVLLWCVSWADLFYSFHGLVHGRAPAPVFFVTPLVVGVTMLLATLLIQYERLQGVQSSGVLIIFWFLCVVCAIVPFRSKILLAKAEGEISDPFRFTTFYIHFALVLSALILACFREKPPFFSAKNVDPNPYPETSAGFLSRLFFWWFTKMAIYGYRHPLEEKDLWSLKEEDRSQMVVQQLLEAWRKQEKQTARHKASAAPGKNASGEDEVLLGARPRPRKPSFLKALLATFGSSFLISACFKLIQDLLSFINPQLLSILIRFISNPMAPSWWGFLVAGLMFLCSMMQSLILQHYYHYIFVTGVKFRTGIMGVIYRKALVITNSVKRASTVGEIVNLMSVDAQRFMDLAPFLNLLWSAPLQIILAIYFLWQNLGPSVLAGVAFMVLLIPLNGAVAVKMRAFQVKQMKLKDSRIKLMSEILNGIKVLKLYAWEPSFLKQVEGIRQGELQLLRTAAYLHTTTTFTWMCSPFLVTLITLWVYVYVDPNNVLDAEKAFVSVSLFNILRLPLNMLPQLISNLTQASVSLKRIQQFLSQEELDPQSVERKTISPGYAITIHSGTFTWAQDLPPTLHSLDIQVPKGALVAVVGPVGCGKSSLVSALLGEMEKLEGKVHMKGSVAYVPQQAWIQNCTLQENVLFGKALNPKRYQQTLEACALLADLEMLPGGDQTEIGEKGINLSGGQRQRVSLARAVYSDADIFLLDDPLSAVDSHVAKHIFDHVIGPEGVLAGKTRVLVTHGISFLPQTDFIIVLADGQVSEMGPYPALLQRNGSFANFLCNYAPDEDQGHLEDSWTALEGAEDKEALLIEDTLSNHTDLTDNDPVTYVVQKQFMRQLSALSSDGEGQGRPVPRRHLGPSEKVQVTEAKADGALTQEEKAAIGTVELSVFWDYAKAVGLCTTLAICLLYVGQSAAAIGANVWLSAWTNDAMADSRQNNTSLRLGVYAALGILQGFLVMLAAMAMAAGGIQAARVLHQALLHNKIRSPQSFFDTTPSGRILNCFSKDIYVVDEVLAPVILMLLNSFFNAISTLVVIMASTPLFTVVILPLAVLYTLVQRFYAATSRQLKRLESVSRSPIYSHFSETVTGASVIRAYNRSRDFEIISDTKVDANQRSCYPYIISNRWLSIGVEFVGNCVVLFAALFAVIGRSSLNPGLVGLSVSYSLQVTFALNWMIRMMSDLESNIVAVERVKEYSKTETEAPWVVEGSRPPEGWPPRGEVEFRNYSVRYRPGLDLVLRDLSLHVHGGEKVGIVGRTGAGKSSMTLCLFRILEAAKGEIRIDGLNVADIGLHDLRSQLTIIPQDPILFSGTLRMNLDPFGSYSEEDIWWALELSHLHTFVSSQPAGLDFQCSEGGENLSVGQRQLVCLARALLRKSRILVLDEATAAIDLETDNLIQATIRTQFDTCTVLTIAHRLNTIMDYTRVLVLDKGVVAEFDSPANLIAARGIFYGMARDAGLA", "chain of UniProt O94956 (whole entry, looked up)": "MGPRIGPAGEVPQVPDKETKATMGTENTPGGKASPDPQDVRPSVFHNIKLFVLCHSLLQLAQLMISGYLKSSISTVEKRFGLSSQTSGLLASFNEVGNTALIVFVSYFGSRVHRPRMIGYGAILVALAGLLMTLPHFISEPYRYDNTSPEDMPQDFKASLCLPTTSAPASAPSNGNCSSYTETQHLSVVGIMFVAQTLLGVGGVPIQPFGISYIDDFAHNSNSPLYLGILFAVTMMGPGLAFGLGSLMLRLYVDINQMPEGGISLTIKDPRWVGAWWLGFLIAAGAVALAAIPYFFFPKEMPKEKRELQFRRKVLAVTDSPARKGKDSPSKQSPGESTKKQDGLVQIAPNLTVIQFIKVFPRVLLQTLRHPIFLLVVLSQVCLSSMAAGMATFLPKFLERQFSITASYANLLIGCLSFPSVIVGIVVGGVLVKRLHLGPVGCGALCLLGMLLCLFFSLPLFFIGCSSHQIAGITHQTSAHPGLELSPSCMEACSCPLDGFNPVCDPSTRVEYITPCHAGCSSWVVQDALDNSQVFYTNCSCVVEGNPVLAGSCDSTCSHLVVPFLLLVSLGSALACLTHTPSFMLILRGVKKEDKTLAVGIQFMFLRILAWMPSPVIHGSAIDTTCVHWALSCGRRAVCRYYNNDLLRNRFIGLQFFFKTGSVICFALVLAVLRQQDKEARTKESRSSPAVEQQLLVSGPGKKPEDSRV"}
{"Substance": "B1 (SIRT5 W222A)", "tested on": "CSCC[C@H](NC(=O)[C@H](CC(C)C)NC(=O)[C@H](CCCCNC(C)=O)NC(=O)[C@H](CCCCN)NC(=O)[C@H](Cc1c[nH]cn1)NC(=O)[C@H](CCCNC(=N)N)NC(=O)[C@H](CO)NC(=O)[C@@H](NC(=O)[C@H](CO)NC(=O)[C@H](CCC(N)=O)NC(=O)CNC(=O)[C@H](CCCCN)NC(=O)[C@@H](N)CCCCN)[C@@H](C)O)C(=O)N[C@@H](Cc1ccccc1)C(=O)N[C@@H](CCCCN)C(=O)N[C@H](C(=O)N[C@@H](CCC(=O)O)C(=O)NCC(=O)O)[C@@H](C)O", "assay": "steady-state kinetics", "conditions": "pH 7.5, 37 °C, added: saturating NAD+", "endpoint": "Km", "value": "774 µM"}
{"Substance": "SLCO2B1 (Homo sapiens, UniProt O94956)", "tested on": "O=C(c1ccc(OCCN2CCCCC2)cc1)c1c(-c2ccc(O[C@@H]3O[C@H](C(=O)O)[C@@H](O)[C@H](O)[C@H]3O)cc2)sc2cc(O)ccc12", "assay": "steady-state kinetics", "system": "HEK293 cells", "conditions": "pH 7.4, 37 °C", "endpoint": "Km", "value": "20.2 µM"}
{"Substance": "TCAGCTATTTTGTGGACTTTGTGCGAGGAT (dsDNA)", "tested on": "WRKY7 1-348", "assay": "EMSA", "system": "double-stranded DNA, one strand shown", "endpoint": "binding", "value": "binds"}
{"Substance": "rCR (Lodderomyces parapsilosis, UniProt A1X808)", "tested on": "CC(=O)c1cccc(Cl)c1", "assay": "steady-state kinetics", "conditions": "pH 7, 30 °C, added: NADH 0.5 mM", "endpoint": "Km", "value": "1310 µM"}
{"Substance": "CAGCCTTTCTTAACCTTACTCGCCCCAGTCTGTCCCGACGTGACTTCCTCGACCCTC (dsDNA)", "tested on": "PTGES3", "assay": "EMSA", "system": "double-stranded DNA, one strand shown", "endpoint": "binding", "value": "binds"}
{"Substance": "B2 (UGT1A4)", "tested on": "CCCCN1C(=O)c2cccc3c(N4CCN(C)CC4)ccc(c23)C1=O", "assay": "steady-state kinetics", "endpoint": "Km", "value": "15.1 µM"}
{"Substance": "enzyme (Toxoplasma gondii, UniProt S8EY38)", "tested on": "NCCCC(=O)O", "assay": "steady-state kinetics", "conditions": "pH 8, 37 °C", "endpoint": "Km", "value": "3770 µM"}
{"Substance": "ABCC3 (Homo sapiens, UniProt O15438)", "tested on": "O=C(c1ccc(OCCN2CCCCC2)cc1)c1c(-c2ccc(O[C@@H]3O[C@H](C(=O)O)[C@@H](O)[C@H](O)[C@H]3O)cc2)sc2cc(O)ccc12", "assay": "steady-state kinetics", "system": "Sf9 vesicles", "conditions": "pH 7, 37 °C, not purified, added: ATP", "endpoint": "Km", "value": "1.38 µM"}
{"Substance": "B3 (enzyme)", "tested on": "N[C@@H](CCCNO)C(=O)O", "assay": "steady-state kinetics", "conditions": "pH 8, 25 °C, added: heme", "endpoint": "Km", "value": "1120 µM"}
{"Substance": "ATAGATTACAAAGTCAAAAAAAATCTTAAA (dsDNA)", "tested on": "WRKY7 1-348", "assay": "EMSA", "system": "double-stranded DNA, one strand shown", "endpoint": "binding", "value": "binds"}
{"Substance": "enzyme (Cannabis sativa, UniProt A0ABL6VS23)", "tested on": "O=c1ccn([C@@H]2O[C@H](CO[P@@](=O)(O)O[P@@](=O)(O)O[C@H]3O[C@H](CO)[C@@H](O)[C@H](O)[C@H]3O)[C@@H](O)[C@H]2O)c(=O)[nH]1", "assay": "steady-state kinetics", "conditions": "30 °C", "endpoint": "Km", "value": "17.4 µM"}
{"Substance": "SLCO1B1 (Homo sapiens, UniProt Q9Y6L6)", "tested on": "O=C(c1ccc(OCCN2CCCCC2)cc1)c1c(-c2ccc(O[C@@H]3O[C@H](C(=O)O)[C@@H](O)[C@H](O)[C@H]3O)cc2)sc2cc(O)ccc12", "assay": "steady-state kinetics", "system": "HEK293 cells", "conditions": "pH 7.4, 37 °C", "endpoint": "Km", "value": "16.2 µM"}
{"Substance": "B4 (PTPN2)", "tested on": "CC(C)[C@H](NC(=O)[C@H](CCC(=O)O)NC(=O)[C@H](CCC(=O)O)NC(=O)[C@@H]1Cc2ccc(O)cc2CN1C(=O)[C@H](CCC(=O)O)NC(=O)[C@H](CC(=O)O)NC(=O)[C@H](CC(=O)O)NC(=O)[C@H](CCC(=O)O)NC(=O)c1ccc2c(c1)C1(OC2=O)c2ccc(O)cc2Oc2cc(O)ccc21)C(N)=O", "assay": "steady-state kinetics", "conditions": "pH 9.5", "endpoint": "Km", "value": "12.2 µM"}
{"Substance": "AAAGACTGCGAAGAAGAAAAGACATCTGGCGGAAACCTGTGCGCCTGGGGCGGTGGA (dsDNA)", "tested on": "PTGES3", "assay": "EMSA", "system": "double-stranded DNA, one strand shown", "endpoint": "binding", "value": "binds"}
{"Substance": "AGCGTGTTTTTTTTTTTTTTTTTTTTTTTTTTTTTTTTTTTTTTTTTTTTTTTTTTTTTTTTTTTTTTTTTTTTAGCGTG (ssDNA; circular)", "tested on": "T1, xseA/xseB 1-456;1-80 H238A (Escherichia coli)", "assay": "mass photometry", "system": "single-stranded DNA", "endpoint": "binding", "value": "binds"}
{"Substance": "B5 (UGT76G1)", "tested on": "C=C1C[C@@]23CC[C@H]4[C@@](C)(CCC[C@@]4(C)C(=O)O[C@@H]4O[C@H](CO)[C@@H](O)[C@H](O)[C@H]4O)[C@@H]2CC[C@]1(O[C@@H]1O[C@H](CO)[C@@H](O)[C@H](O)[C@H]1O[C@@H]1O[C@H](CO)[C@@H](O)[C@H](O)[C@H]1O)C3", "assay": "steady-state kinetics", "conditions": "pH 7.25, 40 °C", "endpoint": "Km", "value": "84.8 µM"}
{"Substance": "B6 (fabH)", "tested on": "CC(=O)SCCNC(=O)CCNC(=O)[C@H](O)C(C)(C)COP(=O)(O)OP(=O)(O)OC[C@H]1O[C@@H](n2cnc3c(N)ncnc32)[C@H](O)[C@@H]1OP(=O)(O)O", "assay": "steady-state kinetics", "conditions": "added: malonyl-ACP", "endpoint": "Km", "value": "38.5 µM"}
{"note": "Some of these lines once more:"}
{"Substance": "ABCC3 (Homo sapiens, UniProt O15438)", "tested on": "O=C(c1ccc(OCCN2CCCCC2)cc1)c1c(-c2ccc(O[C@@H]3O[C@H](C(=O)O)[C@@H](O)[C@H](O)[C@H]3O)cc2)sc2cc(O)ccc12", "assay": "steady-state kinetics", "system": "Sf9 vesicles", "conditions": "pH 7, 37 °C, not purified, added: ATP", "endpoint": "Km", "value": "1.38 µM"}
{"Substance": "TCAGCTATTTTGTGGACTTTGTGCGAGGAT (dsDNA)", "tested on": "WRKY7 1-348", "assay": "EMSA", "system": "double-stranded DNA, one strand shown", "endpoint": "binding", "value": "binds"}
{"Substance": "SLCO2B1 (Homo sapiens, UniProt O94956)", "tested on": "O=C(c1ccc(OCCN2CCCCC2)cc1)c1c(-c2ccc(O[C@@H]3O[C@H](C(=O)O)[C@@H](O)[C@H](O)[C@H]3O)cc2)sc2cc(O)ccc12", "assay": "steady-state kinetics", "system": "HEK293 cells", "conditions": "pH 7.4, 37 °C", "endpoint": "Km", "value": "20.2 µM"}
